Measured values collected from several papers.
Parts stem from different laboratories: compare values within a part only.

Series 1
Target: Prothrombin, mature alpha-thrombin (F2, Homo sapiens, UniProt P00734)
Method: aptamer microarray, sandwich
Form: DNA with 2'F-ANA
Sample: in vitro
Concentration: 200 nM
Notes: whole 15-mer aptamer, many near background
Added: Cy3 exosite-II aptamer, 400 nM
Direction: higher = stronger binding
Oligonucleotide: GGTTGGTGTGGTTGG
| Modification | mean fluorescence intensity |
| --- | --- |
| 2'F-ANA at 1 2 8 10 11 12 15 | 65.5 a.u. |
| 2'F-ANA at 2 5 6 8 9 10 14 | 45.8 a.u. |
| 2'F-ANA at 7 15 | 682 a.u. |
| 2'F-ANA at 1 3 7 8 10 11 12 13 | 112 a.u. |
| 2'F-ANA at 2 3 5 6 8 9 10 13 15 | 48.2 a.u. |
| 2'F-ANA at 6 7 8 9 10 12 15 | 210 a.u. |
| 2'F-ANA at 1 2 3 5 7 9 12 13 | 92.2 a.u. |
| 2'F-ANA at 2 3 4 8 12 13 15 | 658 a.u. |
| 2'F-ANA at 1 2 5 7 8 9 15 | 78.9 a.u. |
| 2'F-ANA at 1 3 4 7 8 9 11 14 | 70.9 a.u. |
| 2'F-ANA at 2 3 5 7 8 11 13 | 106 a.u. |
| 2'F-ANA at 1 2 3 6 8 10 12 13 15 | 86.1 a.u. |
| 2'F-ANA at 1 2 3 5 6 8 10 12 | 51.6 a.u. |
| 2'F-ANA at 2 5 6 7 8 10 13 | 42.3 a.u. |
| 2'F-ANA at 2 5 8 9 10 11 12 13 15 | 54.8 a.u. |
| 2'F-ANA at 3 4 6 9 10 11 14 15 | 184 a.u. |
| 2'F-ANA at 2 3 4 5 7 9 10 11 13 | 51.7 a.u. |
| 2'F-ANA at 4 5 8 11 13 14 15 | 44.3 a.u. |

Series 2
Target: Interferon regulatory factor 3, full length, phosphomimetic (IRF3, Homo sapiens, UniProt Q14653, residues 1-427, S386D/S396D/S398D/S402D/T404D/S405D)
Method: protein-binding microarray
Form: double-stranded DNA, one strand shown
Sample: in vitro
Concentration: 2540 nM top
Notes: 60-bp whole probe
Added: salmon DNA 0.4 mg/ml
Baseline: random background probes
Direction: higher = stronger binding
All sequences stand within: GCCTAGCAC … GTCTTGATTCGCTTGACGCTGCTG
Target sequence (chain): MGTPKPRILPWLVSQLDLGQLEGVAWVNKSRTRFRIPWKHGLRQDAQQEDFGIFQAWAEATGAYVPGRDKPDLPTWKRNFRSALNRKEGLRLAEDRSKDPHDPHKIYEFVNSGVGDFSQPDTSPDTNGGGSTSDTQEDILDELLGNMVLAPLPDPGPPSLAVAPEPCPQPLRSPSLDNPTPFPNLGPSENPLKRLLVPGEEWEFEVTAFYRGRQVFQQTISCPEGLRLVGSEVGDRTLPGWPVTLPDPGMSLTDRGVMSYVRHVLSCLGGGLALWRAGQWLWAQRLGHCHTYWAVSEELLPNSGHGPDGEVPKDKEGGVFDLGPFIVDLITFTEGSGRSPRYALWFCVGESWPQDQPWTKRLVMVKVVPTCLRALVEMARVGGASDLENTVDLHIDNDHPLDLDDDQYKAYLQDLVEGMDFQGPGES
| Oligonucleotide | fitted relative affinity [z-score] |
| --- | --- |
| CTGCCTGGCCAAGCCCAGATGTGCTAG | -0.874 |
| GACGGTATTCTTATCCTGACGTGCTAG | 0.866 |
| TTAGGCCTCCTTTTCCTTTAGTGCTAG | 1.78 |
| TACGGTTCCGGTTTCGGGACGTGCTAG | 5.63 |
| GACTGTTTGGTCCTGATCCTGTGCTAG | 0.174 |
| TTAGAACAGGGGACTGGATTAGTGCTA | -0.508 |
| TTAGGTTTCGACTTTCGGCTAGTGCTA | 3.24 |
| TCACATTTCAATTAGAAACTGTGCTAG | 1.81 |
| GACGGTATCGGGTATCAGGACGTGCTA | 2.19 |
| GACGGTCTCCCTATCCTGACGTGCTAG | 1.98 |
| TTTTTTTTTTTTTTGTATTTGTGCTAG | 1.71 |
| CTCTGGGGAGATCAGCGCATGTGCTAG | -1.08 |
| TTAGTACTGAGTCTCGATTAGTGCTAG | -0.157 |
| GACGGTTCCCATTTCCTGACGTGCTAG | 4.23 |
| TTGGAACTGGGGACTGGATTAGTGCTA | -1.1 |
| TTAGATATCAGTTTCGATCAGTGCTAG | 3.99 |
| GGAGGTCTGGATGTGCCGCGGTGCTAG | -1.12 |
| ACATCTCTCTTAAATAGGGACGTGCTA | 0.99 |
| TCATTTGTCACTCTCAGACTGTGCTAG | 1.45 |
| GTAGGACTGGGGTATCGGTTAGTGCTA | -0.219 |
| TTAGATTTCAGCCTGGATTAGTGCTAG | -0.17 |
| ACCTCTCACGCATCTGAAACCGTGCTA | 0.515 |
| GACGATTTCAGTTCGGAGACGTGCTAG | 1.73 |
| TTAGATTCCGGTTTCGGTTAGTGCTAG | 6.24 |
| TTAGATCTCATTATCGATTAGTGCTAG | 1.06 |

Series 3
Target: RNA binding protein fox-1 homolog 2, RRM domain, GST-SBP tag (RBFOX2, Homo sapiens, UniProt O43251-10, residues 100-194)
Method: RNA Bind-n-Seq
Form: RNA
Sample: in vitro
Concentration: 365 nM
Notes: natural RNA segment, single round, ends assumed
Baseline: no-protein control
Direction: higher = stronger binding
Construct (chain): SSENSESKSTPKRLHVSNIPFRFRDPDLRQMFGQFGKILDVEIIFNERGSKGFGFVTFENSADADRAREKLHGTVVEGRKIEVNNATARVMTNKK
| Oligonucleotide | RBNS enrichment (R) |
| --- | --- |
| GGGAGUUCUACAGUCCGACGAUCUUGAAGCAAUGUGAGAGCUGUUAUUUUGCAUAUAUGUUCUUCAUAAGCUGAACCACCAACAGAGAAAAGCAGGCCUUUGCAGAUAUGAUGGAAUGCAUCCCACCUUGCCAUGGAAUUCUCGGGUGCCAA | 0.573 |
| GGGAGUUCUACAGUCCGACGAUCUGAUUUUAUGAAACAGAAUGUCACCAUAUAAUUCCAAAAAGGGCUUUGUGCUUCUCAUGUAACAUUGGGAUUGUGUAGAUUUGAACCUUAUAACUUGAAUUUUAAAGAUAUGGAAUUCUCGGGUGCCAA | 0.334 |
| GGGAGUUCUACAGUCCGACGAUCAGAAAAAAAGCACAAAGUUCUCAGAGCUCUCGAGGAAAGUGGUUGUCCCCGUACCACCAUGCACUGUAAAUAUCCCUCCCCUCUCUCCCUGGUCCCCUCCCCCAUCCCCAUGGAAUUCUCGGGUGCCAA | 0.901 |
| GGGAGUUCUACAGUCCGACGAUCUCAGAACUUACAGAAUCUUAAACAUCAUGCAGGUAAACUCAUUGUCUGUUUGGAAGACCAGAAUGUGAAGACAAGUAGUAGAAGAAAAUGAAUGCUGCUGCUGAGACUGAUGGAAUUCUCGGGUGCCAA | 0.805 |
| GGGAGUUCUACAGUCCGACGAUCCAGCGAAAUUCUUGUUCAGGCUGGGUCUGUCGACUUUGACUCUGCUAUUUAUAGAGCCAAUGUGGGUUAAUAACUACUAUUUAUUGAGUGCCCGUUCCAUGCCAAGCAUUUGGAAUUCUCGGGUGCCAA | 0.577 |
| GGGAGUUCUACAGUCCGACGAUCGCUGAAGGAGUUCUGAGUUUGUUUAGUUCUUUAUUCCAUCUCUGUGCGGCCUCCCGAGCCUACGUUCGUUCCCUCCUCCCUUAUGGUGUUGGCCUCCUGCCUGCUGUCAUUGGAAUUCUCGGGUGCCAA | 0.716 |
| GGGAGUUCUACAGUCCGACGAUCCUGCCACCAUUUUCAUUGCUUUCCCCAGCAGCAUGAUGGGAACCCAAGCUGAGGGAUACAGGUCCUGAUUUGGUAGGAAUAUUAUUCCCAAGAAAUACCCGCUCCUCACCUGGAAUUCUCGGGUGCCAA | 16.7 |
| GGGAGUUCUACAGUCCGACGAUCGCUGCUUCACUUAGAUGCAGUGAGACACAUAGUUGGUGUUCCGAUUUUCACAUCCUUCCAUGUAUUUAUCUUGAAGAGAUAAGCACAGAAGAGAAGGUGCUCACUAACAGUGGAAUUCUCGGGUGCCAA | 0.216 |
| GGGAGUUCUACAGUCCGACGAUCAUGGGAAGGGAAAGGGGAGAAGAAAUUGACAUUUAUUUUAUUAUUUAUUUUAAAUGUUUACAUUUCUUUGUGUUGUUCCAAGCCUGAAUAGAAACAGAUAGCAUUAAAGUUGGAAUUCUCGGGUGCCAA | 9.21 |

Series 4
Target: RING finger protein unkempt homolog, zinc fingers 1-6, SBP tag (UNK, Homo sapiens, UniProt Q9C0B0, residues 30-357)
Sequence of UniProt Q9C0B0 (30-357, looked up): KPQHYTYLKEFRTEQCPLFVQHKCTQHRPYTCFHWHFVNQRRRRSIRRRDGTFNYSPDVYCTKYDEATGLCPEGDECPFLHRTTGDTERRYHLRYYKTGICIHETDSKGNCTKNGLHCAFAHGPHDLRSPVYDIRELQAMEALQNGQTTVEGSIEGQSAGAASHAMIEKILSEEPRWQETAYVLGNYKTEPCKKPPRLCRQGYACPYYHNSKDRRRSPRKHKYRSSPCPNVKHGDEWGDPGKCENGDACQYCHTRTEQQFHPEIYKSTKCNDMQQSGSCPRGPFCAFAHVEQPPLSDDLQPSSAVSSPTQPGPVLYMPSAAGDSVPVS
Method: RNA Bind-n-Seq
Form: RNA
Sample: in vitro
Concentration: 100 nM
Notes: RNA with constant flanks, vertebrate orthologous sites, ends assumed
Baseline: input RNA pool
Direction: higher = stronger binding
| Oligonucleotide | bound/input enrichment |
| --- | --- |
| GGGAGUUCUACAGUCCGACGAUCCCACAUUAGCACCCUGCCAGCCUACCAGCCUCUCUGUGCACAGCUUCUAAUGUUAUGAUCUAGCUAGAUUUUUAUUUAAAAUAUGAAAAACUGCUUUUCCCAAGACGUUUUUUAAAAGGACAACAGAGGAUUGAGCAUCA | 0.908 ratio |
| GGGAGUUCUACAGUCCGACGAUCAGAAAAUUUUAACCAAGAAUCUGAAGGUAGAAAUACAGGACCAUGGUUAUCUUCCUCACUUAGAAAUAGAUGCACACCUUUGUUCUCUAGAAGGAGACGAGAGGGACGAGAUGAAUCUUCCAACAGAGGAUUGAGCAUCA | 0.633 ratio |
| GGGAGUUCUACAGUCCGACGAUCCCUUAUUUCUUUCUUCCUGACUUUCUUUUUUCUUUCGUUUCUUUUUUCUUUUUUUUUUGGUAGUUGUUGUUACCCACGCCAUUUUACGUCUCCUUCACUGAAGGGCUAGAGUUUUAACUUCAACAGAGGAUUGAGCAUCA | 2.62 ratio |
| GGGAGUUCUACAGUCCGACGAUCUCAGUGACAGAAAGGCGCCCAUGAAGACCAGGAGCGGUCACGCUGGGCGUCGGCGGGGCCUGGGGUCAGGCACUGCGACCAAGUCUUCUCACAUCCCGUGUCCGCUCACUCGAGUCAUCUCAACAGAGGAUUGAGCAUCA | 0.26 ratio |
| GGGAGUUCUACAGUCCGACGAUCAAGAGAUUGUCAGUUUGUAUGCAUAUUACCAUGUUCUCUCUGUUGUGUUUGCUCAUCAGGAGUCCCACCUCUUUCAUUUCACAUCGUUCUGUUGCAUGAAGUUGCCCUUUUACAAGAGAACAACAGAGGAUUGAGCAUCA | 0.252 ratio |
| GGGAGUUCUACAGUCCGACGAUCCAUUAACACACAAAAUGUCUCCAGGGGGGUAUUAGAUUUGAUUUCUUACAUAUAAAAAAAACCAACCAACCAUUUUUAAAGUAGAAGAGGGUUUUAGAUAGUAAAUGAAAUAUUCUUUUUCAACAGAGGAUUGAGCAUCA | 1.28 ratio |
| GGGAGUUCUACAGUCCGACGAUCAUUUAGAAUGUUAAUAAAUUGCUCUGAGUUUCCUCAAGUCCAUUUUGUAAGAUCAGGCCAUAGGAGGGUGUUGUUUCUUUUAAGUUUGUGUACUGUGUCCAAUGUUACAUUUUUAGAAGUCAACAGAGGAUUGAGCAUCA | 2.72 ratio |
| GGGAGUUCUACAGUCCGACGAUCUACAAUCUCUACUCAAGCAGGUAUUUACGUACCACAAUAAGCCUUCAUUUGACAUAUUUACAGCUUUUCUAUUUUCCAGAUGAGAGAAAAGAAUUCCAUGCUUAGAGUUAAAUGUGGUCUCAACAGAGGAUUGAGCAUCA | 0.542 ratio |
| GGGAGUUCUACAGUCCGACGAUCGUAUCUUGGUUUGGGGUAGAGGGGAGGGAGGGGCAGGACUGUGGAAUCUCUAGUGGGUAUGGGUAUAUAGGGUGCACAGUUCUAAGUGGGCCUUUAUGUUAAAAACCUCUGGGGGUGUCUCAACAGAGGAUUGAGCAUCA | 0.908 ratio |
| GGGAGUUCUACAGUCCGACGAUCGUUGUGAUCCAUUUAACAUACACAAAAAGCUAGCCAAAAAAAAUUUGCAUGUAAUUGACUUAGAUGAUGCCACUUUUCUGAGUGCAAAAUUUGGAAGACAGCUUGUACCUGGUUGGAAACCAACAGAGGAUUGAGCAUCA | 0.838 ratio |
| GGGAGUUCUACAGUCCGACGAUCGCAGAAAAGGGGUUAGCAUCUUUAUUUUUAUAUCAAAGAUAAAGGUUAUUUUAAAAUUAUUAGGAUUUCUAUGCAACUUGAAACUCUCUGUUGCUUUUAUAAGCAAAUUAUGUUGGGUCUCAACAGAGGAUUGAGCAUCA | 2.08 ratio |
